Results pooled from the literature.
Parts stem from different laboratories: compare values within a part only. Positions count from the first letter of the parent shown.

Block 1
Target: CCNA2, cyclin fold, Cln2 fusion (human)
Method: yeast growth competition, sequencing
Medium: yeast
Notes: strong parent motif
Reference: not given
Reading: higher = stronger binding
Starting sequence: CDKN1B docking peptide (human); PSACRNLFGPVDH; partner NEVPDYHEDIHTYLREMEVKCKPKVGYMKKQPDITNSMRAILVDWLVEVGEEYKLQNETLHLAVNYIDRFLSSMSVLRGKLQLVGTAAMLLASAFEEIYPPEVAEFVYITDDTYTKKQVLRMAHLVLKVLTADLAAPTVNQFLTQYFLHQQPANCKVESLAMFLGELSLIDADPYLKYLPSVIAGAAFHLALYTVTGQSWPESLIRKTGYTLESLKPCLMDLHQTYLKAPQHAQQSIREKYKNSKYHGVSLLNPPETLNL
Substitution | normalised enrichment score
P1N | 3.97
R5D | -0.208
V11L | 3.95
A3P | 1.52
L7D | 0.237
N6F | 0.513

Block 2
Target: Histone acetyltransferase KAT6A, winged helix 1, GST fusion (KAT6A, Homo sapiens, UniProt Q92794, residues 1-85)
Method: protein binding microarray
Form: double-stranded DNA, one strand shown
Medium: in vitro
Concentration: not given
Notes: 8-mer, flanks averaged, mean of 2 arrays, mostly near background
Reference: not given
Reading: higher = stronger binding
Residues (chain): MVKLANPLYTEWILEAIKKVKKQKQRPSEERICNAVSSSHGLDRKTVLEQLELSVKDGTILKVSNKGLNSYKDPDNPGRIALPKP
Strand | E-score
CGCCGCTC | 0.423
GGGAACCA | 0.0139
TCTCCAGA | -0.179
CCCGCTCG | 0.379

Block 3
Target: Phosphate system positive regulatory protein PHO4, full length, GST-tagged (PHO4, Saccharomyces cerevisiae, UniProt P07270, residues 1-312)
Method: competition protein-binding microarray
Form: double-stranded DNA, one strand shown
Medium: in vitro
Concentration: 2 µM
Notes: whole 60-bp probe, lowest competitor level
Added: Cbf1 competitor, 0.05 µM
Reading: higher = stronger binding
Residues (chain): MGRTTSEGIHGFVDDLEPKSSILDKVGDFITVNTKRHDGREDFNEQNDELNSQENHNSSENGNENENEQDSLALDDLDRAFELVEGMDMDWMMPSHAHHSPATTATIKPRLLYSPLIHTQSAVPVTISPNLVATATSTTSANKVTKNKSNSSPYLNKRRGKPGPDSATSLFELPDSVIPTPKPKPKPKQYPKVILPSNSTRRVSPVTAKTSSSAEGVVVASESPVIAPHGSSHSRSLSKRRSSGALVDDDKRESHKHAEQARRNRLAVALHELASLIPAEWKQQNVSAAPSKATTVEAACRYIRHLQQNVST
Strand | fluorescence intensity [a.u.]
CCACTTTTTTTCAAATGTGTGACGAACCCATACCCCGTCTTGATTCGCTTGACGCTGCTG | 5480
AGCTCTCTTGTCAGACACGTTTTGTCGAATTTCTTGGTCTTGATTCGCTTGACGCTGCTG | 11500
CGGGGTTAAGTTTGACCCGTGGGTGGCTTGCAGCAGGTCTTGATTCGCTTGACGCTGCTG | 8540
TGTGAGGAACAAGCCCACATGTTGAGTTTAAGATGGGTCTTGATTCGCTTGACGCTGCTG | 11000
CACCTCCCGGTATTCAAGATGATGACAGTGAAGAGAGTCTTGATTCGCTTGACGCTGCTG | 4820

Mixed results
Molecule | target | test | system | conditions | scale | quantity | result
PhoQ, residues 284 288 289 292 302 303 SLCLSL | PhoP, residues 12 14 15 18 19 NQAHL (Escherichia coli, UniProt P23836) | Sort-seq, refers to: YFP reporter | E. coli | PhoQ-PhoP variant library, added: 10 µM Mg2+ | reference: high Mg2+ state, higher = stronger signaling | fold induction | 15.9

Some of these lines once more (block 1):
Substitution | normalised enrichment score
A3P | 1.52
